Published values gathered from unrelated publications.
Every numbered part comes from another study and shows a few of its results, in no order. Changes are numbered by the printed parent chain.

Set 1 — technique: protein binding microarray; molecule type: double-stranded DNA, one strand shown; medium: in vitro; concentration: not given; relative to: not given; direction: higher = stronger binding
Target: Histone acetyltransferase KAT6A, winged helix 2, GST fusion (KAT6A, Homo sapiens, UniProt Q92794, residues 85-181)
Notes: 8-mer, flanks averaged, mean of 2 arrays, mostly near background
Residues (chain): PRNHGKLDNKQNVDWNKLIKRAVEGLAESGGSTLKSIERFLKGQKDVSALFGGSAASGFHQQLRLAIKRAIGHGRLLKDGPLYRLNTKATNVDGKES
Oligonucleotide | E-score
AATGAAGG | -0.00442
AAAATATA | 0.107
AAAGTGTC | -0.112
CGCAGGAG | 0.136
CCGTGGGC | 0.113
GGTCGTAC | -0.0818
CAGGTTAC | -0.0491
AAAGCAGT | 0.153
ACTTATAC | -0.0477
AGAGCCAG | 0.00667
CAGCGTAG | 0.137
ATGAACAT | 0.112
AGGGACGC | 0.00743
CATTCGGA | 0.144
GACGTTCA | -0.249

Set 2 — target: CCNB1, cyclin fold, Cln2 fusion (human); technique: yeast growth competition, sequencing; medium: yeast; notes: strong parent motif; relative to: not given; direction: higher = stronger binding
Parent: MASTL docking peptide (human); PMIAKNLMCELDE
Variant | normalised enrichment score
PMIAKNLDCELDE [M8D] | 0.471
PMIAKNLNCELDE [M8N] | 0.322
PMIVKNLMCELDE [A4V] | 3.21
PMIAKNLMVELDE [C9V] | 1.8
PMIAKNLMCMLDE [E10M] | 1.35
PMFAKNLMCELDE [I3F] | 0.44
PMIAVNLMCELDE [K5V] | 0.471
PMVAKNLMCELDE [I3V] | 2.01
PMIFKNLMCELDE [A4F] | 1.33
PMIGKNLMCELDE [A4G] | 0.19
PMIAKSLMCELDE [N6S] | 0.948
PMIAKNLMCELQE [D12Q] | 1.23
PMIAINLMCELDE [K5I] | 0.579

Set 3 — technique: RNA Bind-n-Seq; molecule type: RNA; medium: in vitro; concentration: not given; relative to: input RNA pool; direction: higher = stronger binding
Target: RING finger protein unkempt homolog, zinc fingers 1-6, GST-SBP tag (UNK, Homo sapiens, UniProt Q9C0B0, residues 30-357)
Sequence of UniProt Q9C0B0 (30-357, looked up): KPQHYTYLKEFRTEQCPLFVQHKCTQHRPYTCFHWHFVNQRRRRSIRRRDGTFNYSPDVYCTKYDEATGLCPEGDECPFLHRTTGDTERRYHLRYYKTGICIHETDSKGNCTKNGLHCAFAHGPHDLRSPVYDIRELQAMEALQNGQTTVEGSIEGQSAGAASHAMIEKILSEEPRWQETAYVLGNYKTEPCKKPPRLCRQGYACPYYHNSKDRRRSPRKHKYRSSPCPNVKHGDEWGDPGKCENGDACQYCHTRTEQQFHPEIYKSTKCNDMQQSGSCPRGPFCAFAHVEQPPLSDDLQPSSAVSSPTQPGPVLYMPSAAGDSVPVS
Notes: RNA with constant flanks, human-mouse chimeric sites, ends assumed
All sequences stand within: GGGAGUUCUACAGUCCGACGAUC … CAACAGAGGAUUGAGCAUCA
Oligonucleotide | bound/input enrichment
AACAGAUUUCUCAAGCAGUCAACGUAGGAGAAUGCUGGGGUGAUCAUUGUUGCCCAUGUGCCUUCUGACUGAGCUUUAAUGCUGUUCCAUGUUACAUCUUUCCUUCACUCCAGAAUUGUU | 0.139 ratio
GGGGAGAAACCUUACGAGUGUGUGCAGUGUGGGAAAUCGUAUAGUCAAAGCUCAAAUCUCUUCAGACAUCAGAGACGACACAAUGCAGAAAAACUUUUGAAUGUUGUGAAGGUUUAAGAA | 0.609 ratio
UAAGUUAUUUUGUACAGCUUUGUAAAUUGUAUAGCUUUUUAUAUUGCCAUGUUUAUUUUGUUUGGGUAAUUUGGUUCAUACAUGGCCUAGCUAAGGUAAUGAACAUCUUUUUCAGUAAUU | 0.96 ratio
GGGACUGAUUCAUUCCAAGGACAGGCCACCCCAUUUGAUGCCUGGACUGACGACAGUAUGGAAGGGCCUAGUCAAAAUGUUGAAGCUGAGUCAAUUCAGGAUGCCAUGAGUAUGGAAGAG | 0.407 ratio
UAAAUUAGGGCUGCCGUUUUCUGUUUCUCCCUGGGCUGCGGAAAGCCAGAAGAUUUUAUCUAGUUUGUACAAGGCUGCUGGAGCUUGCUCUUUUUUUCCACGAGGGUGUUUUUGGCUGCA | 0.854 ratio
CGCUUGGAUGAGGCGGGUGUUACUGAUGAAGUGCUAGAUUCUGCCAUGCAAGCCUUCCUUCUGGAGGUCAUUGUUAAACAUGGGGAGCCGGCACCUUAUUUAUGUAACAAAGAUCCGUUU | 0.122 ratio

Set 4 — technique: protein-binding microarray; molecule type: double-stranded DNA, one strand shown; medium: in vitro; concentration: 2540 nM top; notes: 60-bp whole probe; added: salmon DNA 0.4 mg/ml; relative to: random background probes; direction: higher = stronger binding; all sequences stand within: GCCTAGCAC … GTCTTGATTCGCTTGACGCTGCTG
Target: Interferon regulatory factor 3, full length, phosphomimetic (IRF3, Homo sapiens, UniProt Q14653, residues 1-427, S386D/S396D/S398D/S402D/T404D/S405D)
Sequence of UniProt Q14653 (whole entry, unmodified, looked up): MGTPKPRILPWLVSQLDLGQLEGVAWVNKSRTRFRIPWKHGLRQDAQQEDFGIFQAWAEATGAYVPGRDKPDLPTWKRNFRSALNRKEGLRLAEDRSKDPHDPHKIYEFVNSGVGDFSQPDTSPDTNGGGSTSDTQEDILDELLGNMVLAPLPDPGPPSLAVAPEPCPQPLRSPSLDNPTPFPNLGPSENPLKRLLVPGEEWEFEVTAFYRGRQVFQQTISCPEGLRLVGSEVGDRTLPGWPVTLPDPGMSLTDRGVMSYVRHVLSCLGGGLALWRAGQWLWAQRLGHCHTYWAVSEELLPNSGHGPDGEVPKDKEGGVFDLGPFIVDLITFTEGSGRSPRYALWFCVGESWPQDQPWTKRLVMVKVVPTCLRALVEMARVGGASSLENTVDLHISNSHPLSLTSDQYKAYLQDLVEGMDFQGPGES
Oligonucleotide | fitted relative affinity
TTAGATTTCAGTTACGATTAGTGCTAG | 1.74 z-score
TACGAACTGGGGTATCGAGACGTGCTA | -0.462 z-score
GACGGTTTCGGTCCCGGGACGTGCTAG | 6.33 z-score
GAAGATATCAGTTTCGAGACGTGCTAG | 3.44 z-score
ATAGGTCTCGGTCTCGGTTAGTGCTAG | 1.14 z-score
TTAGGACTGGGTTGCGGTTAGTGCTAG | 0.191 z-score
TTAGATTTCAGTATCGATTCGTGCTAG | 3.4 z-score
GACGGTTTCGACACTGTGGACGTGCTA | 3 z-score
CCTCAGCTCCCTTTCTCTCTGTGCTAG | 1.96 z-score

Set 5 — technique: protein-binding microarray; molecule type: double-stranded DNA, one strand shown; medium: in vitro; concentration: 0.8 µM; notes: whole 60-bp probe, no competitor; direction: higher = stronger binding; all sequences stand within: … GTCTTGATTCGCTTGACGCTGCTG
Target: Centromere-binding protein 1, full length, N-terminal tag (CBF1, Saccharomyces cerevisiae, UniProt P17106, residues 1-351)
Sequence of UniProt P17106 (whole entry, looked up): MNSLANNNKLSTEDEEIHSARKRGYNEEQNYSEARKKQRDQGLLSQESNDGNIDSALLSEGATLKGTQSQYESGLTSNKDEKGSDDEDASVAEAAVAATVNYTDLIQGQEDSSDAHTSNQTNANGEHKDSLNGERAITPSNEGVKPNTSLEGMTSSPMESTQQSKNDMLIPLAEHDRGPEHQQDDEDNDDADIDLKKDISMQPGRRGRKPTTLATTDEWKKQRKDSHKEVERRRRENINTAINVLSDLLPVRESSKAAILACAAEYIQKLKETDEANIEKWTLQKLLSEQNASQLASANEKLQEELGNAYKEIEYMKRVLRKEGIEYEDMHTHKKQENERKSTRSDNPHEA
Oligonucleotide | fluorescence intensity [a.u.]
GAATGATAACGCTTCAACGTGCAAAGGAACCGTTAG | 612
GAAAAAAGGGAGTGGCACGAGATTCATACAATGTAG | 762
GAACCGGGTTTTCATCAGGAGATGAGAGTTCTTTAG | 511
CTAACAGCGCGCGGGCACGAGAAAGCTGCCCTATTC | 679
CTATGGCGGCATAGTAACATCAAAAAAAAAAAATTC | 519
GAAACTTTTACACGTGACCGTAGAGGCTGCGCGTAG | 16900
CTAGTGAAAACGGTGAACGTGGTTGTATACCTTTTC | 558
GAATTTCAACTCCCCCACGTCCAGCGGATTGCTTAG | 492
TGTACGAAGCTATCTCACGCATCTATAGTAGTTAGG | 507
GAAGATTAACACGAGAACGTGAGTACTCAATCATAG | 748
CTAATGTCGTTTTGTGAGGTGAGCTTTGCTAGTTTC | 516

Set 6 — technique: RNA Bind-n-Seq; molecule type: RNA; medium: in vitro; concentration: 365 nM; relative to: no-protein control; direction: higher = stronger binding
Target: RNA binding protein fox-1 homolog 2, RRM domain, GST-SBP tag (RBFOX2, Homo sapiens, UniProt O43251-10, residues 100-194)
Notes: natural RNA segment, single round, ends assumed
All sequences stand within: GGGAGUUCUACAGUCCGACGAUC … UGGAAUUCUCGGGUGCCAA
Oligonucleotide | RBNS enrichment (R)
AGAGUAUUUAUGGGAAAGGCUGCCCAUGACCAGUGUGACUCAAAGCAAUGUGAUCUCCCUUGAUUCAAACGCACACCUCUGCCCUGCUGGAGAAGGUUUAGGGCCAUGUC | 2.34
CAAAACCAUACUUAGUCAUCACCAACAAGCUGGACUGCUUAGCUGGGCUGUUUUAUCUUCCCUGAGUGCCUGGGUCUCCCUCCCUCACUUCUGCCCUUUCCCUUCCUCCU | 0.449
AAUGAGAUAAUCCACAGUUAUUCAUUGUGGAGUUGUUGAGACUAUGAAAGACUCAUUGUCUUUGUAUUCAGCUCUUAAAUAGUGUAACUAUAUCCCCACCUCUGCUUGCU | 1.64
AGCCUGCUAUCACUCCUUCAAGCACAGUUCUGAACCCAGUCCAUCCAUCCAGUGGGCCAGCUCCCAGACAGCCAUUCCCAGGUCAUCUUCUUUAAGACAGUGCUAGAGUA | 0.452
UGAAUGAAUAGGUUGUGGCUGUCAACCUCUGGAACCAGAAGUGCCUGUAAGACAGUCCUUCAAGUUUUUACACAGAAGAGAAUUUUGAGUGUCCUCUCUAUGUUUCAAAU | 1.13
UUGUUAAAGAUGUUCCACUGAAAGCAACGCAUGUUUCAAAGGCACGUCUUUCCGUUCGUUGGUUUUCUGUGUGUAAGGAGUAGCAUUGCUGUUGGCGCCUAACCUCGCGU | 7.54
UGGGCAACAAGAACAAAACUCCAUCUCAAAAAAUAAAAAUCCCAAUCCCAAGUCGAAAUCACCUCUUGUUUUAAACAAGAAUGAAUCAUUACUGUGUAUGUUAGGGUAUU | 0.586

Set 7 — technique: Spec-seq; molecule type: double-stranded DNA, one strand shown; medium: in vitro; concentration: not given; notes: whole probe, mean of replicates; relative to: not given; direction: lower = stronger binding; all sequences stand within: GAGTCGTCTCGTCAGCAC … CCGTAGAGCACTCAGGTC
Target: POU, POU domain (Salpingoeca helianthica)
Construct (chain): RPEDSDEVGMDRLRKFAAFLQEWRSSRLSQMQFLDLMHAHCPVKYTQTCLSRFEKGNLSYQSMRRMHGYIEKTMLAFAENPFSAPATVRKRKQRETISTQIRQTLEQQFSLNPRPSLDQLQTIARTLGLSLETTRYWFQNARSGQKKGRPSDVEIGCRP
Oligonucleotide | relative binding energy
ATGCCATC | 1.09 ln ratio
ATGCAGAT | 1.16 ln ratio
ATCAGCAT | 1.16 ln ratio
ATGCCTAA | 0.784 ln ratio
ATGCGGCA | 1.48 ln ratio
ATGCCACG | 1.43 ln ratio
ATGCCCCA | 1.37 ln ratio
GGTATAAT | 0.375 ln ratio
TATTTAAT | -0.778 ln ratio
TTGCTAAT | 0.521 ln ratio
ATAACCAT | -0.0599 ln ratio

Set 8 — technique: universal PBM; molecule type: double-stranded DNA, one strand shown; medium: in vitro; concentration: 600 nM; direction: higher = stronger binding
Target: Sal-like protein 4, full length isoform A (SALL4, Homo sapiens, UniProt Q9UJQ4, residues 1-1053)
Sequence of UniProt Q9UJQ4 (whole entry, looked up): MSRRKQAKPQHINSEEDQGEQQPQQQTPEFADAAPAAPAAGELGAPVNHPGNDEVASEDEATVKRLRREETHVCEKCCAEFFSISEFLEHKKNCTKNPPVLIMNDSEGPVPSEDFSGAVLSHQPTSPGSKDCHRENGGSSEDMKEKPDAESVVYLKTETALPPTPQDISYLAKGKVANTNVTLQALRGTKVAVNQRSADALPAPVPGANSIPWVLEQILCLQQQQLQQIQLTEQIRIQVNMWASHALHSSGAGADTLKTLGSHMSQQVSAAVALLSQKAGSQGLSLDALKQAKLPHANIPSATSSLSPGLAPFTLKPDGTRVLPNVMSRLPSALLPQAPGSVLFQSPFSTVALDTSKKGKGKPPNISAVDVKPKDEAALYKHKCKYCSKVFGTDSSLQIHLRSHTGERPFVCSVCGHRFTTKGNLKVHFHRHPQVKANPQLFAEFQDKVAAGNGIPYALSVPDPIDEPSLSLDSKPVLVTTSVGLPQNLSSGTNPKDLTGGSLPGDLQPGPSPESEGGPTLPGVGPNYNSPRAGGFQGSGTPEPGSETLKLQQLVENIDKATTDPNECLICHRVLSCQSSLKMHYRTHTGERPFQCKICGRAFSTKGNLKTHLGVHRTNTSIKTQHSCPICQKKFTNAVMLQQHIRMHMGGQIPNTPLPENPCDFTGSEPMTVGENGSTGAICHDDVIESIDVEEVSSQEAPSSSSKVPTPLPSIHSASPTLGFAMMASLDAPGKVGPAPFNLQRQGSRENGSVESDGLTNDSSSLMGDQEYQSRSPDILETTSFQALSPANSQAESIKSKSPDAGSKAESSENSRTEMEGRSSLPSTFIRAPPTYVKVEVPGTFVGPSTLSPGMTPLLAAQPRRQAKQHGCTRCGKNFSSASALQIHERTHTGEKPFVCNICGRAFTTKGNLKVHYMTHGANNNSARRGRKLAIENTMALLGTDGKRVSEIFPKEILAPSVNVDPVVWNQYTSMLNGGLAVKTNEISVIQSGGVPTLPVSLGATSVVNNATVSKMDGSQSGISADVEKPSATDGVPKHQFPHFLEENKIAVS
Notes: 8-mer, flanks averaged, mean of replicates
Oligonucleotide | E-score
ACATTCAA | 0.11
AGCGTCCA | -0.237
AGATGGCA | 0.0387
GGGCCTAA | -0.325
TAAGCATA | 0.366
GGTTCGTA | -0.0256
ACTTAACT | 0.122
GTCCGCGA | -0.178
GCCTTTCA | -0.0474
TGCAAAAA | 0.247
CACCTCAG | -0.17
CTATAGAG | 0.105
GAGGTACA | 0.025
GGCGACCC | -0.361
GTTAGATA | 0.239

For quick reference, copied from above (set 5):
Oligonucleotide | fluorescence intensity [a.u.]
CTAACAGCGCGCGGGCACGAGAAAGCTGCCCTATTC | 679
GAAGATTAACACGAGAACGTGAGTACTCAATCATAG | 748
CTAATGTCGTTTTGTGAGGTGAGCTTTGCTAGTTTC | 516
GAACCGGGTTTTCATCAGGAGATGAGAGTTCTTTAG | 511
TGTACGAAGCTATCTCACGCATCTATAGTAGTTAGG | 507
CTAGTGAAAACGGTGAACGTGGTTGTATACCTTTTC | 558
GAATTTCAACTCCCCCACGTCCAGCGGATTGCTTAG | 492
CTATGGCGGCATAGTAACATCAAAAAAAAAAAATTC | 519
GAATGATAACGCTTCAACGTGCAAAGGAACCGTTAG | 612
GAAACTTTTACACGTGACCGTAGAGGCTGCGCGTAG | 16900
GAAAAAAGGGAGTGGCACGAGATTCATACAATGTAG | 762
